Results collected from several papers.
Parts stem from different laboratories: compare values within a part only. “And” joins repeats or separate records; there may be more than shown.
Sequence of UniProt Q9NWZ3 (whole entry, looked up): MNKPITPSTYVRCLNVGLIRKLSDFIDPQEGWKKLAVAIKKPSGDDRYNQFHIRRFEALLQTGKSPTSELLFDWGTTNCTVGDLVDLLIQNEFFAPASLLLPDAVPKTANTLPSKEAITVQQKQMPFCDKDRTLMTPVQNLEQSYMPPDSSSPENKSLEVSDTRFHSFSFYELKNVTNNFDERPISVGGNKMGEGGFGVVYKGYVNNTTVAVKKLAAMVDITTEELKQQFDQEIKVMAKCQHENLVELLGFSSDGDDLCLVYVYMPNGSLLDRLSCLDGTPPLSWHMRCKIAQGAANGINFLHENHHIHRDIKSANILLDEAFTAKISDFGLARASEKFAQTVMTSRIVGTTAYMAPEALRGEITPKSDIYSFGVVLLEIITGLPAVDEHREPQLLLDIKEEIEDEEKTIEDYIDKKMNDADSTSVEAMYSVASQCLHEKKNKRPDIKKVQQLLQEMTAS

Series 1 — effect on: peptide-MHC binding; molecule type: peptide; concentration: concentration not given
Target: HLA class I histocompatibility antigen, A alpha chain, allele A*25:01 (Homo sapiens, UniProt P04439)
Molecule	binding
ETWVETWAF	inactive
CLSDEINHV	inactive
FPLWNTEKI	inactive
PSYQLPLPM	inactive
MSRKLHRYI	inactive
RNNDPTLPY	inactive
DWMDRIEEF	inactive
YADGGQWYN	inactive

Series 2 — target: UBE2D4 UBC core domain (UniProt Q9Y2X8); method: yeast two-hybrid; medium: yeast; setting: mostly zero background; reference: not given; reading: higher = stronger interaction
B1: TRIM60 RING domain (UniProt Q495X7); chain ALVNLQEESSCPICLEYLKDPVTINCGHNFCRSCLSVSWKDLDDTFPCPVCRFCFPYKSFRR
B2: TRIM26 RING domain (UniProt Q12899); chain PLRSLEEEVTCSICLDYLRDPVTIDCGHVFCRSCTTDVRPISGSRPVCPLCKKPFKKENIRP
B3: TRIM54 RING domain (UniProt Q9BYV2); chain SMDNLEKQLICPICLEMFSKPVVILPCQHNLCRKCANDVFQASNPLWQSRGSTTVSSGGRFRCPSCRHEVVLDRHGV
B4: TRIM22 RING domain (UniProt Q8IYM9); chain VKVDIEKEVTCPICLELLTEPLSLDCGHSFCQACITAKIKESVIISRGESSCPVCQTRFQPGNLRP
B5: RNF187 RING domain (UniProt Q5TA31); chain ALPAGPAEAACALCQRAPREPVRADCGHRFCRACVVRFWAEEDGPFPCPECADDCWQRAVEP
Target sequence (chain): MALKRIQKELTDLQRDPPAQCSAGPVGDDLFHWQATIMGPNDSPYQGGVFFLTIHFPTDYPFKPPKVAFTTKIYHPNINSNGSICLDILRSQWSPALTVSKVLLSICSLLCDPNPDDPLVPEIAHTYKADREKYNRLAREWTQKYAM
Molecule	lacZ reporter activity
B1 (TRIM60 RING domain)	0
LDAASGHPLVCPLCHGQYERPCLLDCFHDFCTGCLRGRATDGRLSCPLCQHQTLVKGPSG (Rnf207 RING domain (UniProt Q3V3A7))	0
B2 (TRIM26 RING domain)	0
B3 (TRIM54 RING domain)	0
LGTKLEAKYLCSACRNVLRRPFQAQCGHRYCSFCLASILSSGPQNCAACVHEGIYEEGIS (TRAF2 RING domain (UniProt Q12933))	0
B4 (TRIM22 RING domain)	0
PEELAVNNDDCAICWDSMQAARKLPCGHLFHNSCLRSWLEQDTSCPTCRMSLNIADNNR (AMFR RING domain (UniProt Q9UKV5))	9210
B5 (RNF187 RING domain)	0

Other studies, line by line
SMILES	tested on	test	test system	conditions	scale	quantity	value
CCCS(=O)(=O)c1ncc(Cl)c(C(=O)N(Cc2ccccc2)c2ccccn2)n1	HEK-293T-ACE2-TMPRSS2	cell count	–	concentration not given	–	viability	87%
CN(C)[C@@H]1CCN(c2cc(-c3ccccc3)nc3ccnn23)C1	HTR1A (Homo sapiens, UniProt P08908)	cell-free assay	–	10 µM	–	inhibition	64.8%
CNS(=O)(=O)CCNCC1(O)CCCN(Cc2cccc(C)c2)C1=O (stereo not drawn)	HEK-293T-ACE2-TMPRSS2	cell count	–	concentration not given	–	viability	102%
CC(C)(O)[C@H](F)CN1Cc2cc(NC(=O)c3cnn4cccnc34)c(N3CCOCC3)cc2C1=O	IRAK4 (Homo sapiens, UniProt Q9NWZ3)	target engagement, NanoBRET	live cells	–	–	EC50	3.05 nM and 3.56 nM
CCN(CCO)CCCOc1ccc2c(Nc3cc(CC(=O)Nc4cccc(F)c4)[nH]n3)ncnc2c1	HuT78	CCK-8	–	2 µM, 48 h	reference: untreated	viability	114%

For quick reference, copied from above (series 2):
Molecule	lacZ reporter activity
LDAASGHPLVCPLCHGQYERPCLLDCFHDFCTGCLRGRATDGRLSCPLCQHQTLVKGPSG (Rnf207 RING domain (UniProt Q3V3A7))	0
LGTKLEAKYLCSACRNVLRRPFQAQCGHRYCSFCLASILSSGPQNCAACVHEGIYEEGIS (TRAF2 RING domain (UniProt Q12933))	0
B1 (TRIM60 RING domain)	0
